Measured values of several laboratories.
Each numbered part is a random draw from the data of one study; scales do not carry over between parts. Positions count from the first letter of the parent shown.

Series 1
Target: ABI1, truncated, D143A, DHFR fusion (Arabidopsis thaliana)
Method: DHFR PCA, deep sequencing
Medium: yeast
Notes: methotrexate growth selection, single substitutions
Added: (+)-ABA 4.8 µM
Relative to: wild-type fitted maximum
Direction: higher = stronger binding
Quantity: relative binding score
Starting sequence: PYL1, truncated, DHFR fusion (Arabidopsis thaliana); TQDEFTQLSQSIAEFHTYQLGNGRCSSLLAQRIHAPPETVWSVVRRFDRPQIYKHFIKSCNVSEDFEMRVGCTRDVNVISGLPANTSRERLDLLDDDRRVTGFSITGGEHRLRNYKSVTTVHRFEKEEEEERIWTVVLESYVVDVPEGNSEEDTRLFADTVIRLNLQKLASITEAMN
L82N: 7.18%
D153Q: 16.5%
T106W: 30.9%
R99E: 0.878%
L94I: 58.9%
E147F: 60.2%
S26T: 76.1%
W134I: 78.4%
A13V: 58.7%
A30H: 66.7%
H110Y: 4.58%
V136H: -5.96%

Series 2
Target: Fragile X messenger ribonucleoprotein 1, C-terminal low-complexity region (Fmr1, Mus musculus, UniProt P35922)
Method: RNA Bind-n-Seq
Form: RNA
Medium: in vitro
Tested at: 200 nM
Notes: whole 134-nt RNA, ends assumed
Added: 150 mM KCl
Relative to: input library
Direction: higher = stronger binding
Quantity: log2 enrichment
Constant ends, left off below: GGGAGUUCUACAGUCCGACGAUC … UGGAAUUCUCGGGUGUCAAGG
AGUCCUGUGCUACACAUCGUAUGUACCGAAUCGGGGUGGGGAAAAAAAGGGGUGGGGAAAGUAUUAUGUUACGCCGUUCGGAUCUGCACU: 0.816
UGGGAGGUGGAUUUUGUUUAUUUUUUUAGCUCACUUCCAGGGGUGGGAAUUUUUUUUUAAUAUGUGUCAUGAAUAAAGUUGUUUUUGAAA: 0.439
UCAAGUCCUGUGCUACACAUCGUAUGUACCGAAUCGGUGGUUUUUUUGGUUUGGAAAGUAUUAUGUUACGCCGUUCGGAUCUGCACUUCC: -0.488
UCAAGUCCUGUGCUACACAUCGUAUGUACCGAAUCGGGAAGGGAAGGGGAAGGGGAAAGUAUUAUGUUACGCCGUUCGGAUCUGCACUUC: 0.656
GCAGGAAGUAAAAACAAAUGGAAAUGCUUCGGAUAGUGGCAGGGGUGGGGGUUGCUAAGGAAAGGGUGGGAUGGGAGUGGGUGAAGAGUU: 0.0966
UUUGGAGAAGGAACCCCACUCUCCAGCUGACCAGCCUGAACAACAGGCAGAAUCCACUUUGACAUCAGCUGAGACUAGGGGAAGCAAGAA: -0.872
UAACUUUAGAGGAGGAUCUGAUGGAUAUGGCAGUGGAAGUGGAUUUGGGGAUGGCUAUAAUGGGUAUGGAGGAGGACCUGGAGGUGGCAA: 0.145
UCCUGUGCUACACAUCGUAUGUACCGAAUCGGGGCCCCCCGGCCCCCCGGGGCCCCCCGGAAAGUAUUAUGUUACGCCGUUCGGAUCUGC: 0.101
UGGGAGGUGGAUUUUGUUUAUUUUUUUAGCUCAUUUCCAGGGGUGGGAAUUUUUUUUUAAUAUGUGUCAUGAAUAAAGUCGUUUUUGAAA: 0.27
CUCAAGUCCUGUGCUACACAUCGUAUGUACCGAAUCGGCCGGGGCCGGGGCCGGAAAGUAUUAUGUUACGCCGUUCGGAUCUGCACUUCC: -0.15
UGGGAGGUGGAUUUUGUUUAUUUUUUUAGCUCAUUUCCAGGGGUGGGAAUUUUUUUUUAAUAUGUGUCAUGAAUAAAGUUGUUUUUGACA: 0.534
GCAGGAAGUAAAAACAAAUGGAAAUGCUUCGGAUAGUGGCAGGGGUGGGGGUUGUUAAGGAAAGGGUGGGAUGGGAGUGGGUAAAGAGUU: 0.00248
CAAGUCCUGUGCUACACAUCGUAUGUACCGAAUCGGGUGGGUUUGGGUUUUUGGGAAAGUAUUAUGUUACGCCGUUCGGAUCUGCACUUC: 1.02
UAACUUUAGAGGAGGAUCUGAUGGAUAUGGCAGUGGACGUGGAUUUGGGGAUGGCUAUAAUGGGUAUGGAGGAGGACCUGGAGGGGGCAA: 0.143

Series 3
Target: FOS, bZIP domain (human)
Method: DHFR protein complementation
Medium: yeast
Notes: single substitutions, most at no-binding floor
Relative to: wild-type JUN-FOS pair
Direction: higher = stronger binding
Quantity: binding fitness
Starting sequence: JUN, bZIP domain (human); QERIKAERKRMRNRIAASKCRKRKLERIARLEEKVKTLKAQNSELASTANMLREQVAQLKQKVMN; partner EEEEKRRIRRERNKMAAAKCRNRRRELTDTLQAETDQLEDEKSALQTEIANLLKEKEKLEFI
I28E: -0.0512 natural log
K36A: 0.0792 natural log
I28N: -0.189 natural log
M51E: 0.019 natural log
T48A: -0.189 natural log
T48M: -0.0369 natural log
A29C: -0.271 natural log
L45N: -1.16 natural log
A49T: -0.738 natural log
A46T: -0.0696 natural log
E54F: -0.385 natural log
T37Q: 0.131 natural log
S47F: -0.0205 natural log
L45Y: -0.61 natural log
Q41L: -0.144 natural log
A57R: -0.0968 natural log

Series 4
Target: CCNB3, cyclin fold, Cln2 fusion (human)
Method: yeast growth competition, sequencing
Medium: yeast
Notes: weak parent motif
Relative to: not given
Direction: higher = stronger binding
Quantity: normalised enrichment score
Starting sequence: WEE1 docking peptide (human); HKTFRKLRLFDTP; partner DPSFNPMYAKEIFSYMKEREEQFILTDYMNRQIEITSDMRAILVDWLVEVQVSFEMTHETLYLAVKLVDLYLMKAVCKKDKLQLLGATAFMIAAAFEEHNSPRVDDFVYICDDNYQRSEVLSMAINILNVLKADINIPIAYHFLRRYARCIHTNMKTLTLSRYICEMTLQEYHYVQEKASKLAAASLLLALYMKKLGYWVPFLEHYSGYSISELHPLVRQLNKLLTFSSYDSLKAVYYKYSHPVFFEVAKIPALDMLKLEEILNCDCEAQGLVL
HKTFRKYRLFDTP [L7Y]: 0.392
HKTFGKLRLFDTP [R5G]: -0.248
HKTIRKLRLFDTP [F4I]: 0.231
HKTFRKLNLFDTP [R8N]: 0.0521
HKTFRKLRLFDTQ [P13Q]: -0.141
HKTFRSLRLFDTP [K6S]: 0.0617
HKTFRKLRLFQTP [D11Q]: 1.31
HKTSRKLRLFDTP [F4S]: -0.0982
HKTFDKLRLFDTP [R5D]: 0.562
HKTFRKCRLFDTP [L7C]: 0.887
HKTFRKLRLFDAP [T12A]: 0.0659
HKAFRKLRLFDTP [T3A]: -0.193
HKMFRKLRLFDTP [T3M]: 0.169
HKTFRKLRLFDSP [T12S]: 0.169
HKTFRKLRLFDTT [P13T]: 0.573
HKTVRKLRLFDTP [F4V]: 0.29
HKHFRKLRLFDTP [T3H]: 0.691
HKTFKKLRFFDTP [R5K L9F]: -0.441
HKTFRKLRLFDTW [P13W]: -0.0465
HCTFRKLRLFDTP [K2C]: -0.0161
HKTFRKLRLFDTC [P13C]: 0.376
HKTFRKLRLFDTS [P13S]: 0.0754
HKTFLKLRLFDTP [R5L]: -0.331
HKTFRKLRLFDTK [P13K]: 0.0214
CKTFRKLRLFDTP [H1C]: 0.0966

Series 5
Target: RNA binding protein fox-1 homolog 2, RRM domain, GST-SBP tag (RBFOX2, Homo sapiens, UniProt O43251-10, residues 100-194)
Method: RNA Bind-n-Seq
Form: RNA
Medium: in vitro
Tested at: 365 nM
Notes: natural RNA segment, single round, ends assumed
Relative to: no-protein control
Direction: higher = stronger binding
Quantity: RBNS enrichment (R)
Constant ends, left off below: GGGAGUUCUACAGUCCGACGAUC … UGGAAUUCUCGGGUGCCAA
Residues (chain): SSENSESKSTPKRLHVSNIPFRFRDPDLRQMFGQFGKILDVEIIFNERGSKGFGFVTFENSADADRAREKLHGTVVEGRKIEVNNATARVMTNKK
AGACCCAGAGUCUGGAAGCUUCACACUGAGUUGGUGACUCCAGCUUCUAUCUCCUGGAGGUCCCAAGAUGAUUCAUAAAUACUGCCUGGUGCACAGUGCCCAAACAGCAA: 0.299
UAUGAGUGACAGAGCUUUCUGUGUAUAAUUUGUCUAAAUAAUUUGUCUAAUAAAAAUGUUUUCUAAACUUGCUCUCAUACUAUUGAAGUCUUAACUGUAAGAUUUGAAAA: 1.06
AGUACCUUUAACUCAAUUUAAUAUAACAAGAAAUCGUAAAAUACUUAUAACCUAUCUUAGAGAAAUGAGUGCUGGUUUUGAGAGUUGUUUUUUAACUGAAAGAUUAUUUC: 0.405
AAAGCAGGAGCUCAGACUCUUAGAGCCAGCUGUGGCUUCGGACCCAAGGCCUGACCUAGGCUGCUAUCCUAAUAUUGCAGGAGGGGCCUCUCUUCCAAGCCCCACCCUAA: 0.409
AUUCCCUGGCCUCUCUGGCUGCCACUUGGUUAUGUUGUGUGUGUGCGUGAGUGGUGUGCAGGCGCGGUUCCUUACGCCCCAUGUGUGCUGUGUGUGUCCAGGCACGGUUC: 1.79
UCCCCUCUAAUGCUCACGCUCCCAACACAAGGUGGGCAGGGAGGCACCAUUCAGGAACCUGGACCAAAGCUGACGAGGCUGGGCCAAGCCAGGGAUGGGGCCACAGCCAG: 0.301
GAAUAGGUAAAUGCCAAUACCCAUACAGUUUUUCUAGUGGGGACAAAGGCCGUUUUAUUAGAAAUUUAGGCUUUCAUGCCUGUAGACCCUAGUUAUUAAAUGCACUAAAC: 1.19
GCAUAAGACGGGGAGGUUCUUCUUAUUUUGUGAGCCGGUUGCCCUGGAAACGGAUAACAAAGGGCAGCCUUCCACUUCUGGUAUAAUGGGGGAGCCUCUUUUCUCAGGCU: 0.402
GGUUCAAGGUCUUAUUUAACAAACCAGAAAAAUGCAGGCCAAGCCCUAAUUCAUCAUAUUGGUUUAAGCAUGCUGCCUCCUGAGAGCCACAGUGUCAUAUACAGAUACUU: 0.77
UCUAAAUGAUACAUUGGAAUUGUGCCUUUUCUACCACACUGGAUUAAAUAAACUUGUCAAAAUAUGGUUUUGUCAUUUUCUGAGACACUUGGUAAUUUGCUGUUCUUUCU: 0.453
UUCCUAGCAAACGGGAGGAAACCAGCUCCUGUGUGCCUCUGACGACUGUUGUCUGUGCCAACCUAAGAGAUUCCCAGUGCUGGGACCACUGCUUUUUUUCCUGAUGUGGG: 0.457
UGACUUUUGAAUUACAGAGAUAUAAAUGAAGUAUUAUCUGUAAAAAUUGUUAUAAUUAGAGUUGUGAUACAGAGUAUAUUUCCAUUCAGACAAUAUAUCAUAACUUAAUA: 0.552
